Results pooled from the literature.
Every numbered part comes from another study and shows a few of its results, in no order.

Set 1 — technique: protein binding microarray; molecule type: double-stranded DNA, one strand shown; medium: in vitro; concentration: not given; reference: not given; reading: higher = stronger binding; endpoint: E-score
Target: Histone acetyltransferase KAT6A, winged helix 2, GST fusion (KAT6A, Homo sapiens, UniProt Q92794, residues 85-181)
Notes: 8-mer, flanks averaged, mean of 2 arrays, mostly near background
Residues (chain): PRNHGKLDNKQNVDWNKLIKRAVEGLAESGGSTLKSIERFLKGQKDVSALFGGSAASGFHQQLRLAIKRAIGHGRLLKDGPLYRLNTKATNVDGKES
AGACGTGA: -0.154
AGCGAGAA: -0.0187
TTAATCAA: 0.0639
CATCACAC: 0.0375
CTATGTGC: -0.00898
CACAGGGG: 0.011
AGGCCGCG: 0.121
GCACATCA: -0.0599
GTGTCTCA: -0.0209
AAGTAACG: -0.151
CTAAACTA: -0.258
CAGGTGTC: -0.0918
CATACGTC: -0.206
CCACAGCG: 0.206
GGGCCGTA: 0.133
AAACCTGG: 0.0467
CCCGGAAA: 0.0867
AGATAGCG: 0.0224
ATAGAATA: 0.0931
AGATCGAG: -0.017

Set 2 — technique: protein-binding microarray; molecule type: double-stranded DNA, one strand shown; medium: in vitro; concentration: 250 nM; notes: 60-bp whole probe; added: salmon DNA 0.4 mg/ml; reference: random background probes; reading: higher = stronger binding; endpoint: log fluorescence; constant ends, left off below: GCCTAGCAC … GTCTTGATTCGCTTGACGCTGCTG
Target: Interferon regulatory factor 5, full length, phosphomimetic (IRF5, Homo sapiens, UniProt Q13568-2, residues 1-514, K96S/S451D/S453D/S456D/S462D)
TTAGGGATCCTTCTCCTTTAGTGCTAG: -0.417 z-score
GACGGTATCGGGACTGGGGGCGTGCTA: 2.28 z-score
TACGGTATCGGTTTCGGGACGTGCTAG: 8.42 z-score
GACGGCATCGACTTTCGGGACGTGCTA: 5.09 z-score
TCAGGCTTAGTTTGTCAAACTGTGCTA: -0.26 z-score
GACGCTATCGGACTGGGGACGTGCTAG: 1 z-score
GTGTACATCTCTCTTAAATAGTGCTAG: 0.162 z-score
TTAGGACTGGGGTATCTGTTAGTGCTA: -0.00855 z-score
ATTGCTTTCTCTTTCATTGCGTGCTAG: 6.35 z-score
GTCGAACTGAGTCTCGAGACGTGCTAG: 0.335 z-score
TGAGATTTCAGTATCGATTAGTGCTAG: 7.79 z-score
GACGGACTGGGTTTGGGGACGTGCTAG: -0.631 z-score
TTAGGACTGGACACTTGGTTAGTGCTA: -0.124 z-score
TTAGGTTCCCTTATCCTTTAGTGCTAG: -0.00475 z-score
TCATGTTTGGGTCTTGTACTGTGCTAG: 0.0995 z-score
GACGAACTGTGTCTCGAGACGTGCTAG: -0.237 z-score
TTAGGACTGGGTTATCGGTTAGTGCTA: 1.99 z-score
TCAACTCTCTCCATGTGACTGTGCTAG: -0.0833 z-score
TTAGGTATCCTTAGCCTTTAGTGCTAG: -0.222 z-score
TTAGAACTGGGGTATCCATTAGTGCTA: 0.272 z-score
GACGGTATCTGTCTCGGGACGTGCTAG: 0.594 z-score
TATGTTCCTTTAGCACTTTGGTGCTAG: 0.309 z-score
TTAGGTTTCCTACTGGTTTAGTGCTAG: 0.451 z-score
TCATTATGCTCTTTCTAACTGTGCTAG: 1.03 z-score
GACGATTTCAGACTGCAGACGTGCTAG: 0.282 z-score

Set 3 — technique: RNA Bind-n-Seq; molecule type: RNA; medium: in vitro; concentration: 365 nM; reference: no-protein control; reading: higher = stronger binding; endpoint: RBNS enrichment (R)
Target: RNA binding protein fox-1 homolog 2, RRM domain, GST-SBP tag (RBFOX2, Homo sapiens, UniProt O43251-10, residues 100-194)
Notes: natural RNA segment, single round, ends assumed
Construct (chain): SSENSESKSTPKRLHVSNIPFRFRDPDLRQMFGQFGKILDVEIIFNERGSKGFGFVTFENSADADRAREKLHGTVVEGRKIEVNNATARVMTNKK
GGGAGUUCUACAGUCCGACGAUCUGCUCUCAGGCAGCACAUCUUGCAAACAGUUUGGAGAAGGAGGCUGUUUUUGUUGAAUCGAGUUCUCAAAUCGGUUUAGACCAAAGCCAUUCUUCUGACCCUCUAGAUAAUGGAAUUCUCGGGUGCCAA: 0.347
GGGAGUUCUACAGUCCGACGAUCUCACUUUGCCCAUUACGUCAGAAGUAAGUGUCUGGGUGUGGUAGUAUAAGUUUCUUAAGGAAUUGUCCUGCUGACCUGUAUCUAACUAAUGAACUUAAGGGUCUGGGUUUUGGAAUUCUCGGGUGCCAA: 0.257
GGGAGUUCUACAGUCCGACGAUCUUUCCGGGCGGCACUGUGAUGGGAGCUGGUGGCGACUGAGUCCUUCUGUACGUGCAACUGGGAAACUUUUGUCCUUUGAGGCUAGGCAGCUCCCUGCCCUCCGUGUGUGUUGGAAUUCUCGGGUGCCAA: 0.855
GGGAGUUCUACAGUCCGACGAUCGGUGUAAGUGACAUGAUGUGGCCAAAAAUCCAAACUGUGCAGUUGCGUUGUGACAAACAUGCAAUGUGCUGUAAAAAUUCAAUACAGUUUAAAUAAAAUCUCUAUAUUAGUGGAAUUCUCGGGUGCCAA: 0.317
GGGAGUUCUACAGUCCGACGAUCUGGCCUGAGGGCCCAAGAAGUCCUGGCGUCCACACCCACACCCCACUGUCCACGCACAUGGAGGAAAAGUUACUGCUGAAGACCCACUCGAUGGACGAUCUCAGCCUUGAUGGAAUUCUCGGGUGCCAA: 0.33
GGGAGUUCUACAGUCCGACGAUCAGAGCUAAACAUGAGUUUAGACACACAAGAUUCUAAAAUGCAAAUGUUUAUUUUGAAGCAGGCAUUGACAACACAAAAACUGUGUAGUGGUCUUGAUGCUGGAUUGUUUCUGGAAUUCUCGGGUGCCAA: 0.377
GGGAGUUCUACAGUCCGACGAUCUAUUAAGUGGUAAUACUUGAAAAGGAGCACUUAUACCAUAAGUCUUAGGAAAUAAUGUUUGUAAUAAACUUAACUAUGUUACAUAUCAACAGGCAAAAAUAUAGAAUGUUUGGAAUUCUCGGGUGCCAA: 0.567
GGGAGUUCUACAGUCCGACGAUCAGUGGGUCUGCUUCACUGUGGAAGGAGAAACUGUGACUUUCUGGUUGCAUUACUGCAAAACAGCAAAAACCGAAUAACCCGAGCCCUGCUGCUUUCUGAGCCCUGGGCCUUGGAAUUCUCGGGUGCCAA: 0.243
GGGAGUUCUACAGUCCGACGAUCACCUAGCAUCUUCGGGAAGAAAUGAUUCCAGUCUAUUGGCUGAUACUACAUUAGUUUCCCUUUCUGAUUCUUAAUCUGUAGUUCUUUGUUAUAUUUCACAAAAAAAAAAAUGGAAUUCUCGGGUGCCAA: 0.678
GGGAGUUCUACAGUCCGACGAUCUCAUUUUUUAAUAUAGUAUGCCAAUUUUGUGACUGUUACCAUGUGAAAGUCCUGUUGAAAUGAACAAUUGUCUGCCCCACAAUCAAGAAUGUAUGUGUAAAGUGUGAAUAUGGAAUUCUCGGGUGCCAA: 17.1
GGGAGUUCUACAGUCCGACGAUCGCUGACCACAGGCAGCUGGCAGGUCCUUUUUUCAACCAGCAGGCUAGGCUGGCCAUAGACCCAGCUCUGCCUCACCCUGCCAUGUUCCAGUAAUGGAGGCCUCCAGCCUGUGGAAUUCUCGGGUGCCAA: 0.264
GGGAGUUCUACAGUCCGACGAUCUGAUACUGCCACAUGCUGCACAGUGCCCACCCAUCAGAAGACACCUUGAGACUGUCCCACAGUGCUCCUCUAGAGGCUGCUGGGGCCACCCUGACAUCACUCAGCACUCAUGGAAUUCUCGGGUGCCAA: 0.343

Set 4 — technique: RNA Bind-n-Seq; molecule type: RNA; medium: in vitro; concentration: not given; reference: input RNA pool; reading: higher = stronger binding; endpoint: bound/input enrichment
Target: RING finger protein unkempt homolog, zinc fingers 1-6, GST-SBP tag (UNK, Homo sapiens, UniProt Q9C0B0, residues 30-357)
Chain of UniProt Q9C0B0 (30-357, looked up): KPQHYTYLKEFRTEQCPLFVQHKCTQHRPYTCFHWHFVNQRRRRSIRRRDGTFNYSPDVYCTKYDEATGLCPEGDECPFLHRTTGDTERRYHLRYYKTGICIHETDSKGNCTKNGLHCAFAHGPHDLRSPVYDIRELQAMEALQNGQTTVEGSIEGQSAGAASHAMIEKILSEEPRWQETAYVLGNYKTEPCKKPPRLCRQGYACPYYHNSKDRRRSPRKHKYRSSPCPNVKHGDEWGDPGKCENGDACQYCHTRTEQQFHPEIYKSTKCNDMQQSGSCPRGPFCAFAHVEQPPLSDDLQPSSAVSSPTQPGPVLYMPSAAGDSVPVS
Notes: RNA with constant flanks, human and mouse sites, ends assumed
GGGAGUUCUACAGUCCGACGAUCCAUGAAGGAACACUGGAUGACUUUACAGUUUUAAACAGACGCAAAAAGGUAGCCAGCAAUGUAGCAUCAGCAGUGAAAAGGCCAUUUAAUUUCAUGGCAAAUUUUCCUUGUCCACCUUCACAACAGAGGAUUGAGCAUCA: 0.184 ratio
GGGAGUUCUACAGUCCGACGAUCAUUUCCAUGGGACUUACAAGGAGCAUGCAGAUUGUCCCUUUAGACAAGCAGAUCACAAUCAUAGACAGUCCAUGCCUAAUUAUCUCACCUUGUAACUCCCCCACUGCACUUGCCCUUCGGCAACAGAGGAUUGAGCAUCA: 0.269 ratio
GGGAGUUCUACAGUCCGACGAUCGAUGAAGUCGUUACAUCGGAGGGAAAGACUAAGCCCCUCAUACCAGAGAUGUGUUUUAUUUAUAGUGAAGAAAAUAUAGAAUAUUCUCCACCCAAUGCCUUCCUUGAAGAGGAUGGAACACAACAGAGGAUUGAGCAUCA: 0.275 ratio
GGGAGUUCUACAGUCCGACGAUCGCCACAAAAUAUUUAAUGUGUUGUGCCUUCAUGAUGUAACAGAACAUUCUCCAGGUAGGGUAGUUGGGGGAAAUAAAGGGAUAAAUCUCUAAUUAUUGCUGUUUAACUGUUUGUUAUCAUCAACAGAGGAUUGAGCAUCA: 0.565 ratio
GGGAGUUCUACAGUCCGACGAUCACUCCUGUGUCAUAUGACCAGGGGGCAAAUAUGGCCAAGCAGAUCGGAGCAGCCACUUACAUAGAAUGCUCAGCUUUACAGUCAGAAAACAGCGUCAGAGACAUUUUUCACGUCGCCACCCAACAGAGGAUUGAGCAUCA: 0.169 ratio
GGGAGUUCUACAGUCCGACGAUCACUGAAUUAAAUCAUCAUGCAUAUUUGUUUCUCCAGAGCACCUUUGACAAACAUGAUUUGGACAGAGACUGUGCUUUGUCGCCUGAUGAACUUAAAGAUUUAUUUCAAGUUUUUCCUUACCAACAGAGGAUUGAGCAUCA: 0.188 ratio
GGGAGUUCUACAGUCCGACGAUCUCUAGUCGGGCACAGCAAAUGCAUGCCUUUUCCUGGAUUCGAAAUACCUUAGAGGAGCAUCCUGAGACGUCACUCCCCAAACAGGAAGUCUAUGAUGAAUACAAGAGCUACUGCGACAAUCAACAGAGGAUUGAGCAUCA: 0.207 ratio
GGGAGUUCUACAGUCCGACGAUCUGCAAUUAUGCCAAACAGUAUUGAGCAGAAUAAUUUAUUUCUUUUUUUUCUUUUGCUUUAAAUCAUGAAUCCCGCCAGGUACGGUGGCUCACACCUGUCAUCCCAGCACUUUGGGAGGCCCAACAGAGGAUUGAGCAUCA: 1.63 ratio
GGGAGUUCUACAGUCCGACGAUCCUUUUUAAGAAGAUAUGUGAUGGGAUCUUCUAUACCCCUCAAUAUUUAAAUCCUUCUGUGAUUAGCCUUUUGAAACAUAUGCUGCAGGUGGAUCCCAUGAAGAGGGCCACAAUCAAAGAUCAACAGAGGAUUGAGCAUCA: 0.383 ratio
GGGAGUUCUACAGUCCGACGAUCGAAGGCAGCAAAAGGCACAGGUCAAGAAGCAGGUCACGAUCUCGGACCAGAAGUUCCUCUAGGUCCCGUAGCCGAUCCCGUUCACGAAGGAGCAAGUCUUACAGCCGAUCAAGGAGCAGGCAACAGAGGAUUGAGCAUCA: 0.156 ratio
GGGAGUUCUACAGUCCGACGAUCUUAGUGAACAGCACUGAUCUCUGUAUAGUCCCCAUCACUAAUGUCAGAACCCAGCGUAUGUAGCAUUUGUAUUGCAGUUUCCCUGGCUUCCUUUACGUUUUGCACUGAUGAAUUUUGACACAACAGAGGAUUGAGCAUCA: 0.437 ratio

A few entries again (set 2):
GACGGTATCTGTCTCGGGACGTGCTAG: 0.594 z-score
TCAGGCTTAGTTTGTCAAACTGTGCTA: -0.26 z-score
GACGGACTGGGTTTGGGGACGTGCTAG: -0.631 z-score
TTAGGACTGGGTTATCGGTTAGTGCTA: 1.99 z-score
TCAACTCTCTCCATGTGACTGTGCTAG: -0.0833 z-score
